Results from different studies.
A part holds a random share of what one study measured. Substitutions count along the parent as printed.

Block 1 — method: RNA Bind-n-Seq; form: RNA; sample: in vitro; concentration: 365 nM; reference: no-protein control; reading: higher = stronger binding
Target: RNA binding protein fox-1 homolog 2, RRM domain, GST-SBP tag (RBFOX2, Homo sapiens, UniProt O43251-10, residues 100-194)
Setting: natural RNA segment, single round, ends assumed
Construct (chain): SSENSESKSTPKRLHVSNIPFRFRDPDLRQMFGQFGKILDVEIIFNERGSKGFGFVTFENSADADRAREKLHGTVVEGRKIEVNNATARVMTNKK
| Strand | RBNS enrichment (R) |
| --- | --- |
| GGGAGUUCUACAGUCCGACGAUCUAAGGAGACGAAGACCUAACGGGGCACUGAGGCCGGGCUGCUUUAGGAUCCCAAGUGGCAAGAAAGCUCACAUUUUUUGAGUUCAAAUGCUACUGUCUAAGCGCAAAGUCUGGAAUUCUCGGGUGCCAA | 0.301 |
| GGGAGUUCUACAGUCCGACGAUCCAACCCUCUUCUGCCUCUGCCGGUUGUGGAACAAAUGACUAUCCUGAACAGGGUGGAGGGGUGUGGGAAAGAAACCAGCCAUAUUGGUUUUGGUUUCUGUAUUUUUCACAUGGAAUUCUCGGGUGCCAA | 0.295 |
| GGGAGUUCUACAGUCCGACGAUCCUUCAUCAUUGACACUGACCCUAAAGAGGUCACUAGAUUUCUCCAAGGUCCUACCAUCUUAUAUGUGACAUAGUUGUGUCCAGACUCCAGGCCUCUCCUGCUCAGUCUAGUGGAAUUCUCGGGUGCCAA | 0.227 |
| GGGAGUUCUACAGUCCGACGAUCCAUGUACUAGUGGAAAAGUCUAGUGAAAAGGGCAGAAUCUGCAGCUGUAACAAAGCUAAGAACAGCACUUGACUAGUUUGGGCCCAAUCCCUGAUCUGAGUUGAUUUGUUUGGAAUUCUCGGGUGCCAA | 0.388 |
| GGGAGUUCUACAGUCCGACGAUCAUCCAAAAUAAAAACCCAGACUAGAAUAGGGUUCUUAAAAUCAAGUAUCAAUACAAAAUAGAACACAAUUAAAAUCUUAAUUGUUGGCUGGGCACAGUGGCUCACGCCUGUGGAAUUCUCGGGUGCCAA | 0.352 |
| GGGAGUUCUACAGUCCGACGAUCGUGGUGAAGAGUUGCCAACUACCUCCUAGGCAUCCCGCCCACCUUGCUUUGACCUCCAGCAAGGCAGGGGCAUGGAGGGACAAGGCUGCUGCUAUCAGGACCCAUUCUGGUGGAAUUCUCGGGUGCCAA | 0.791 |
| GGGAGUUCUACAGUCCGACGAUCUUCCUUCCUUUCUUGUCCUGUUUCCCUUCCUGCCCUUGCAGUCCUGAGGUCCUGCAGCCCCGGCCCCUCCUCCGUGACCUGGUGUGGCCAGGCUGCGGGGACGGGAGGGGUGGAAUUCUCGGGUGCCAA | 0.675 |
| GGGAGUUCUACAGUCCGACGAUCCUAAGCUGAAAAGCACUCUUGUCAGAAUUUAGACCUAACUAAGAUUCAUCAGUUCCUAACCUACUCUGCAGAACUGCAACAGUUCGCUCAGGCCAGUGUUGAAACUUUCAUGGAAUUCUCGGGUGCCAA | 0.157 |

Block 2 — method: competition protein-binding microarray; form: double-stranded DNA, one strand shown; sample: in vitro; concentration: 2 µM; added: Pho4 competitor, 0.05 µM; reading: higher = stronger binding
Target: Centromere-binding protein 1, full length, His-tagged (CBF1, Saccharomyces cerevisiae, UniProt P17106, residues 1-351)
UniProt P17106, sequence (whole entry, looked up): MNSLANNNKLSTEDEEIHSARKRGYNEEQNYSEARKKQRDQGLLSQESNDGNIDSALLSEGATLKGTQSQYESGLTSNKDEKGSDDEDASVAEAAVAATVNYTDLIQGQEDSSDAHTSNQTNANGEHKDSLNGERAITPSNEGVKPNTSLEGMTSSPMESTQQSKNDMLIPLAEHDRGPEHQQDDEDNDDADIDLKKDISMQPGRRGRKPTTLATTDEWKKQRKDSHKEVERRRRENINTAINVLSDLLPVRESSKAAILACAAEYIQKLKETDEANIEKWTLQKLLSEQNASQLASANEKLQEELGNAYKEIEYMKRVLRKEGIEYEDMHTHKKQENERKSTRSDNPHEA
Setting: whole 60-bp probe, lowest competitor level
| Strand | fluorescence intensity |
| --- | --- |
| CCTCATGGAGATGAGCACATGCTACAACTAATAACGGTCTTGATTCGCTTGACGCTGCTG | 315 a.u. |
| CAGAATCGCATACTCCACGTGAGAACAAGAAAAAATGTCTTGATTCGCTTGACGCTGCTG | 665 a.u. |
| AACCGGGTTATTTTGCACGTGATGGGCACTTGGGAGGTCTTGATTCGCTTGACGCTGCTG | 3730 a.u. |
| AAAGCGGTAATTTGTCTTGTGGGTGCAGATATCTATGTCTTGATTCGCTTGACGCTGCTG | 75.5 a.u. |
| TGCGCAACAACTTTTCACGTGTACTTATGTCTAGAAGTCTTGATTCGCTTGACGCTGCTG | 1080 a.u. |
| AAATTACTAAGTTGTCACAGAACTTACCCCGTATGAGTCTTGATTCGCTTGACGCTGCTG | 108 a.u. |
| CATACCCAACCTTGTCACGTCACTTAAGATATTTGTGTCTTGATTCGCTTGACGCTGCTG | 139 a.u. |
| CATACCCAACCTTGTCAAGTGGGTGAAGATATTTGTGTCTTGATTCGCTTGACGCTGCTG | 73.1 a.u. |
| CTTTCCCGATCTTGTCACCGTACTTTAGCACATTTGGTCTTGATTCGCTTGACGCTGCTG | 70.3 a.u. |
| AAGAGCAAGTTGTTACACGTGTGAATCTGGCACATTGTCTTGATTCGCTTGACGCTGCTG | 756 a.u. |
| CTTCTGTAAATTTTTCACGTGTTCTGACGCGCCCCGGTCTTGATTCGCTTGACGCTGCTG | 1270 a.u. |
| GGTTTTGTAGGACTAGGTGTGATGAGTGGTGGCTTTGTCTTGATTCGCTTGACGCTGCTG | 81.9 a.u. |
| CACTCGGCCATGAGGCACATGCAAACAAACGCTGCAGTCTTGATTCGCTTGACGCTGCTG | 157 a.u. |
| AGTCGACTGAGGCGGAACGTGTGGAAGGGAAGCAGGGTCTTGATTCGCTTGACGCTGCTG | 62.7 a.u. |
| CTAACAACAGAGACCCACATGGACGTTGGCGCAATTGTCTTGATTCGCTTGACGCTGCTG | 70.2 a.u. |
| GGCAATAGGCTTTCTCTCGTGCTGTACCCCTAATGTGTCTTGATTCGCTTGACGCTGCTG | 65.5 a.u. |
| CATGCCGAGAAGTTACTCGTGCAAATCACTACGATAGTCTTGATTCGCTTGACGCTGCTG | 82.5 a.u. |

Block 3 — target: CCND2, cyclin fold, Cln2 fusion (human); method: yeast growth competition, sequencing; sample: yeast; setting: strong parent motif; reference: not given; reading: higher = stronger binding
Starting sequence: INSM1 docking peptide (human); PKAIRKLHFEDEV; partner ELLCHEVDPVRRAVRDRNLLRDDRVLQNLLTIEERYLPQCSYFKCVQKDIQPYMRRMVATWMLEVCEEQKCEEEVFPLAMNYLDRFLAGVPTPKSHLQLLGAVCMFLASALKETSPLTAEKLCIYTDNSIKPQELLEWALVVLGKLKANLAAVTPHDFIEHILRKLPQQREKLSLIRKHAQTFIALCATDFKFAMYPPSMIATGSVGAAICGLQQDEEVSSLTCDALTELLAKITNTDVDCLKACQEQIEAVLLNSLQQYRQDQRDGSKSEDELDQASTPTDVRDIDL
| Change | normalised enrichment score |
| --- | --- |
| PKAIRKLHIEDEV [F9I] | -0.129 |
| PKAIRGLHFEDEV [K6G] | 0.376 |
| PKAIRKLFFEDEV [H8F] | 1.67 |
| PKAIRKLHFEDCV [E12C] | 1.98 |
| PKAIRSLHFEDEV [K6S] | 0.647 |
| PKAIRKLPFEDEV [H8P] | 0.796 |
| PYAIRKLHFEDEV [K2Y] | 1.46 |
| PKASRKLHFEDEV [I4S] | 1.37 |
| PKAIRDLHFEDEV [K6D] | 0.312 |
| PKAIRKVHFEDEV [L7V] | 0.45 |
| PKAIRKLHFENEV [D11N] | 1.74 |
| PPAIRKLHFEDEV [K2P] | 1.36 |
| PKAIRKLHFEDAV [E12A] | 1.97 |
| PKAIRKYHFEDEV [L7Y] | -0.0686 |
| PKAIRKLHGEDEV [F9G] | 0.445 |
| PKAIEKLHFEDEV [R5E] | 0.313 |
| PKAIRELHFEDEV [K6E] | 1.24 |
| PKAIRKLHFYDEV [E10Y] | 1.1 |
| PKAIRKRHFEDEV [L7R] | 0.263 |
| PKAIRKLHNEDEV [F9N] | 0.117 |

Block 4 — method: RNA Bind-n-Seq; form: RNA; sample: in vitro; concentration: 200 nM; setting: whole 134-nt RNA, ends assumed; added: 150 mM LiCl; reference: input library; reading: higher = stronger binding; each molecule: 7-deaza-guanosine replaces G
Target: Ras GTPase-activating protein-binding protein 1, full length (G3BP1, Homo sapiens, UniProt Q13283)
UniProt Q13283, sequence (whole entry, looked up): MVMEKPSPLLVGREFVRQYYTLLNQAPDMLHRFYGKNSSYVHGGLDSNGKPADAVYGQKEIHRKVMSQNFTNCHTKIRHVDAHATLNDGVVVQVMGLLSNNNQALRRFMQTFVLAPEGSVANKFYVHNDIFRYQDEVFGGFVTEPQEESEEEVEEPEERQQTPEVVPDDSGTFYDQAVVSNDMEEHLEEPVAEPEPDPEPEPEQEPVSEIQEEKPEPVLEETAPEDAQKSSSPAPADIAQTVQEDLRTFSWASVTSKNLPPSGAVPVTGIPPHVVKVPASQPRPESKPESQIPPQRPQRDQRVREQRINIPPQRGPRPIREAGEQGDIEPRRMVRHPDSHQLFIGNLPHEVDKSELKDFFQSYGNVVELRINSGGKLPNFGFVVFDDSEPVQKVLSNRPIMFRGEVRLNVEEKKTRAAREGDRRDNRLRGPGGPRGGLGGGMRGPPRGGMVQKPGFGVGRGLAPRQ
| Strand | log2 enrichment |
| --- | --- |
| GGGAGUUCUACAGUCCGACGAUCCUCAAGUCCUGUGCUACACAUCGUAUGUACCGAAUCGGAGGUUUGGUUUUUGGAAAGUAUUAUGUUACGCCGUUCGGAUCUGCACUUCCAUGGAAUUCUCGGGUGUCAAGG | 0.0657 |
| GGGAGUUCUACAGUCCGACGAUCAGUCCUGUGCUACACAUCGUAUGUACCGAAUCGGGGUGGGGAGGGGAAAAAAAGGGGAAAGUAUUAUGUUACGCCGUUCGGAUCUGCACUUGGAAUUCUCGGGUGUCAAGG | 0.693 |
| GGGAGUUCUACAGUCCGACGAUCCUCAAGUCCUGUGCUACACAUCGUAUGUACCGAAUCGGCCCGGCCCGGCCCGGGAAAGUAUUAUGUUACGCCGUUCGGAUCUGCACUUCCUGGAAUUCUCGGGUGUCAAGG | 0.504 |
| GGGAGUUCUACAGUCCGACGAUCUAACUUUAAAGGAGGAUCUGAUGGAUAUGGCAGUGGACGUGGAUUUGGGGAUGGCUAUAAUGGGUAUGGAGGAGGACCUGGAGGUGGCAAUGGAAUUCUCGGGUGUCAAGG | 0.0739 |
| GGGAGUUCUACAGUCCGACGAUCUCCUGUGCUACACAUCGUAUGUACCGAAUCAAACCCCCCCAAAUUUUUAAAUUUUUAAAAAAGUAUUAUGUUACGCCGUUCGGAUCUGCAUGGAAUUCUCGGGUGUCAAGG | 1.46 |
| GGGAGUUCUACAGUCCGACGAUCUAACUUUAGAGGAGGAUCUGAUGGAUAUGGCUGUGGACGUGGAUUUGGGGAUGGCUAUAAUGGGUAUGGAGGAGGACCUGGAGGUGGCAAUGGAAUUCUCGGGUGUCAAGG | 0.175 |
| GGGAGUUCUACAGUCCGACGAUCUCAAGUCCUGUGCUACACAUCGUAUGUACCGAAUCGGGGCCCGGCCCGGCCCGGGAAAGUAUUAUGUUACGCCGUUCGGAUCUGCACUUCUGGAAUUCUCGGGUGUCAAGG | -0.483 |
| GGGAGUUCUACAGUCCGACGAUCAAGUCCUGUGCUACACAUCGUAUGUACCGAAUCGGUUUUUGGAAAAAGGUUUUUGGAAAGUAUUAUGUUACGCCGUUCGGAUCUGCACUUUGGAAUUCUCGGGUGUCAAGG | -2.46 |

A few entries again (block 2):
| Strand | fluorescence intensity |
| --- | --- |
| AACCGGGTTATTTTGCACGTGATGGGCACTTGGGAGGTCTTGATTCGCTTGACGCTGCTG | 3730 a.u. |
| AAAGCGGTAATTTGTCTTGTGGGTGCAGATATCTATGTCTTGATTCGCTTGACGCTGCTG | 75.5 a.u. |
| TGCGCAACAACTTTTCACGTGTACTTATGTCTAGAAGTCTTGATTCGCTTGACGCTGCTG | 1080 a.u. |
| AAATTACTAAGTTGTCACAGAACTTACCCCGTATGAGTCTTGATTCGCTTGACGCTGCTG | 108 a.u. |
| CATACCCAACCTTGTCACGTCACTTAAGATATTTGTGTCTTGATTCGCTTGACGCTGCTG | 139 a.u. |
| CATACCCAACCTTGTCAAGTGGGTGAAGATATTTGTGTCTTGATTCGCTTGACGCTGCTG | 73.1 a.u. |
| CTTTCCCGATCTTGTCACCGTACTTTAGCACATTTGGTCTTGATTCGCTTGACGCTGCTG | 70.3 a.u. |
